Results collected from several papers.
Each numbered part is a random draw from the data of one study; scales do not carry over between parts. Changes are numbered by the printed parent chain.

Series 1
Target: Hepatocyte nuclear factor 3-alpha (Foxa1, Mus musculus, UniProt P35582, residues 1-468, full length assumed)
Method: EMSA with sequencing
Molecule type: double-stranded DNA, one strand shown
Matrix: in vitro
Concentration: 10 and 20 nM
Setting: whole designed probe, mean of two concentrations, ends assumed
Baseline: negative control set to 0
Direction: higher = stronger binding
Constant ends, left off below: GTGAGCGGTGCCCATTGATGGGGAAC … TTTCACTGGGATCGTGGGGAC
Construct (chain): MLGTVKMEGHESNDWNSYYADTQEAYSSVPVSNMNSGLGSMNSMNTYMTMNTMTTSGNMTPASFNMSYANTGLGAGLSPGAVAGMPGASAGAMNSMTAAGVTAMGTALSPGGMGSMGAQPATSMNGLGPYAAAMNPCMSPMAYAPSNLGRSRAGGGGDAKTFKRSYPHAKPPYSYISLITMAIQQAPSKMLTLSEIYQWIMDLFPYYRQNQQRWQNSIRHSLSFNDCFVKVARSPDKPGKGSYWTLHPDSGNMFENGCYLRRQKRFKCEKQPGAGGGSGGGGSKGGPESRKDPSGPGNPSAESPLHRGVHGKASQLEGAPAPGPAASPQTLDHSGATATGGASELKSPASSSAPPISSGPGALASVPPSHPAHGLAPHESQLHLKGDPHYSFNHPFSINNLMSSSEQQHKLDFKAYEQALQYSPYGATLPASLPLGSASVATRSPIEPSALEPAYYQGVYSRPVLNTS
Sequence | normalised bound fraction [ratio]
ATCTAGTTCCAGTCTTAGCATGGCAATTTCTTCCCGCAACATGCTGTTTTCACGCAAGAGATCTTCTTCTTTCTTATGACTAAGAGAAAGCTAAGTAAACAAAGGGAACTTTTAGTTAGCACTCAATAGAATGACATATCATGATTTCTTCTAAAATCAAAGAATGACATTTATATTTGTATAATGAAATAAT | 0.522
TCAACTCAGACTGCTTGAAAAAGGAATAGTGAGTTCAAAGATGCAAAGATGCCAGCGGCTGCATGTTACATTTTTGAGAGGTAGCCTTCAAAGTAAACAAGAAAAATGGGATTTTTTATGTTAATATGTGATTCATTTTAGAAAGAATGTTTCTTCGCTTAGTCTCTCCACATAAGATACTTACAGGTTTCCA | 0.313
CCTCTCCATTCTGATTTCCTTCAGACAAAATTATTTCTATCTTCGACATCAACAACTCTCCTGAAAAACATATAGTCAGTTCATCCAATTTCATATTTACTCTTTACTCTTGAGCACAATTTCTTGCCTACCAATTTATGAGCTCTTTCCAGTGAAAGTCCATATCTTCCATTCTTCTGTTACCCCTTTGGGG | 0.177
TAGTGGTCTGAGTGTGTGGGAGTGGAGCTAAGCCTCCAGGACGATAGACTGTAGGACTTTGGATACTGGTTCCCAGCAAAAGATAAATGCCAAAAATTGCATTGGGTATGGGGGGAGTGAACACTTCCCACAAAGGCCTTTGTTCTTTTGCCCACAGCTTGTTACTTAGGCAACTGACAATTGAAGTTTGTGG | -0.0494
ATCTTCCCCCTCTTCCTTGCCCCACCAGCTCACCTTCCCGGGTTATTTGCAGATAGGAAAATAAATAAAGCCGGCATTCGTTAACCCTCTTCTGGCGCAAACTGCTGTTTGCTCTGGATCTAACATGGTCCTTTGGCGAGGCGTGGCTCCGGGAGAGCAAAGCACCGTGTCAGGGCCATGATCCGGGCTCGCC | 0.339
ATCTTCCCCCTCTTCCTTGCCCCACCAGCTCACCTTCCCGGGTATCTGCAAATAAGGAAATTAATATAAGCCGGCATTCGTTAACCCTCTTCTGGCGCAAACTGCTGTTTGCTCTGGATGAATCATGGTCCTTTGGCGACGCCAGGCTCCGGGAGAGCAAAGCACCGTGTCAGGGCCATGATCCGGGGTGGCC | 0.166
GTAATTCATATAACAATTAAGTACGCACTTTTGAAAAATGACATCTAATTAATAGAAACTCTTCCAAAGCAACAAGTGGGTAGCAAAACTAAGTAATCTAGAGTGCTTAAAAATGGAACTCCTGGAATGCTTTTAAACCATGTTACTTGCTTATCATTCACTGATTATTCCTGGTTTCTCTTTTCTTTCTCTA | -0.0447
AAGTATCATAATGTGGGCTACTCACTAAAAAAAATTTTCTTCTTTTTTTTTTTCTCCCTGCTAAATATTTTCAGGATGAGTCAGTTGGTCTGTATTTGCATTGGGCATAAAATCAACATGCTAGTCAACTAGCTTTTTCTCTTTTCATTAAAGTAGTTTCTAGAGCAGAAAGTAGCAGAGGTGGAGGTGGTAA | 0.305

Series 2
Target: Histone acetyltransferase KAT6A, winged helix 1, GST fusion (KAT6A, Homo sapiens, UniProt Q92794, residues 1-85)
Method: protein binding microarray
Molecule type: double-stranded DNA, one strand shown
Matrix: in vitro
Concentration: not given
Setting: 8-mer, flanks averaged, mean of 2 arrays, mostly near background
Baseline: not given
Direction: higher = stronger binding
Residues (chain): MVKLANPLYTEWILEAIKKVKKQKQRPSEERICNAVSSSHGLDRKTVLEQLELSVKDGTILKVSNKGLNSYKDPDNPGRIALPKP
Sequence | E-score
GTACCCAA | -0.0803
CAGGCCAA | -0.14
AGGTACGG | 0.27
AGCAGTAA | -0.166
ACTTCTGG | -0.196
AATACGGA | 0.152
AGTTTCCC | -0.106
AGGCTCTA | -0.0816
CCGTGGGC | 0.301
AGCCCATC | -0.122
ATCGCAAT | -0.0349
CAGCCCAA | -0.127
CAGACACG | 0.142
TCCCGAAA | -0.0714
GCGAACTA | -0.0708
AGCATCGG | 0.113
CCGAGACC | 0.155
CACACGTG | -0.0625

Series 3
Target: PABPC1L2, full length, GST fusion (mouse, UniProt A0ABA7IW68)
Method: RNAcompete
Molecule type: RNA
Matrix: in vitro
Concentration: 20 nM
Setting: 7-mer, probes averaged, single round
Baseline: mean of 7-mers
Direction: higher = stronger binding
Residues (chain): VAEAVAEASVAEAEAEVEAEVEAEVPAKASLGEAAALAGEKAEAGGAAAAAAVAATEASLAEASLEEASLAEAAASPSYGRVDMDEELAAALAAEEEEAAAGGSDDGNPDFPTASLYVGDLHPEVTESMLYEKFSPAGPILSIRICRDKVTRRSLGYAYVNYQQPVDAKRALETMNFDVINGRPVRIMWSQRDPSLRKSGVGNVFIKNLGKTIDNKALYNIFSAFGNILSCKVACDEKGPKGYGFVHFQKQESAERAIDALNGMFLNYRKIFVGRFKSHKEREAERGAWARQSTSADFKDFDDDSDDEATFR
Sequence | 7-mer Z-score
AAGAGAG | 0.488
GUCCAGC | -0.302
UAAAUCU | 0.49
GUAUUUA | 0.095
CUUCAAC | -0.324
UCACCAC | -0.146
GGUGUGA | 0.0261
AGCCCUA | -0.171
CGCGUGU | -0.389
CCCAGGC | -0.135
AAGCGCU | 0.00979
GAUAGCA | -0.0518
GUAACAU | -0.0428
ACUUCCU | -0.347
CCCCAAU | -0.353
AACAAAG | 1.75
CCGUAUG | -0.313
CAGCCGA | -0.222
GGAGGCA | 0.341
CAAGGAA | 0.196
CGGUACC | -0.262
UCACACC | -0.394

Series 4
Target: ABI1, truncated, D143A, DHFR fusion (Arabidopsis thaliana)
Method: DHFR PCA, deep sequencing
Matrix: yeast
Setting: methotrexate growth selection, single substitutions
Together with: (+)-ABA 710 µM
Baseline: wild-type fitted maximum
Direction: higher = stronger binding
Starting sequence: PYL1, truncated, DHFR fusion (Arabidopsis thaliana); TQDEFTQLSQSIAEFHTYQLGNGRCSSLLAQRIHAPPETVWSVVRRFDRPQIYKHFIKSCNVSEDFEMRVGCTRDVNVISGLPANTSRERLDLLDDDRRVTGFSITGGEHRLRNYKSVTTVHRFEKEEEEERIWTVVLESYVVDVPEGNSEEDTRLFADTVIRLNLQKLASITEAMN
Substitution | relative binding score [%]
E89R | 7.63
W134D | 102
L166N | 41
G102N | 18.1
S11I | 96.8
G102Y | -2.09
S117Y | -13
F157N | -22.1
I162L | 84.5
D97A | 117
E152F | 91.5
E125N | 111
E129I | 92.8
G23A | 98.7
G81C | 77.9
R69T | 102
H16R | 36.4
R132S | 113
D65R | 98.9
L8C | 110
S63G | 103
F5H | 107
P36I | 91.3
I57Q | 68.5
E89P | -14.1

Series 5
Target: CCND1, cyclin fold, Cln2 fusion (human)
Method: yeast growth competition, sequencing
Matrix: yeast
Setting: weak parent motif
Baseline: not given
Direction: higher = stronger binding
Starting sequence: USP37 docking peptide (human); PSAKRSLGFLPQP
Substitution | normalised enrichment score
P1A | 0.0924
K4A | 0.334
R5A | -0.0636
Q12A | 0.572
P13A | 0.00904
G8A | 0.117

Series 6
Target: TEF, bZIP domain (human)
Method: DHFR protein complementation
Matrix: yeast
Setting: single substitutions, most at no-binding floor
Baseline: wild-type JUN-FOS pair
Direction: higher = stronger binding
Starting sequence: JUN, bZIP domain (human); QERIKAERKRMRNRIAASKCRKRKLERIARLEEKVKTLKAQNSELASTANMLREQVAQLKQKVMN; partner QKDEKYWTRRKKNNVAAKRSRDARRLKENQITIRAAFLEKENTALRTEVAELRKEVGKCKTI
Substitution | binding fitness [natural log]
T37P | -1.52
L52G | -1.51
S47C | -1.39
L38C | -1.47
L38S | -1.57
S47V | -1.39
S43A | -1.36
K36D | -1.37
A29V | -1.27
I28W | -1.51
Q41N | -1.42
L45H | -1.51
I28T | -1.5
E54N | -1.49
T37K | -1.46
L45I | -1.56
V56L | -1.43
S47F | -1.48
A46Y | -1.41
L59P | -1.48
L52I | -1.42
L31H | -1.55

For quick reference, copied from above (series 2):
Sequence | E-score
GTACCCAA | -0.0803
CAGGCCAA | -0.14
AGGTACGG | 0.27
AGCAGTAA | -0.166
ACTTCTGG | -0.196
AATACGGA | 0.152
AGTTTCCC | -0.106
AGGCTCTA | -0.0816
CCGTGGGC | 0.301
AGCCCATC | -0.122
ATCGCAAT | -0.0349
CAGCCCAA | -0.127
CAGACACG | 0.142
TCCCGAAA | -0.0714
GCGAACTA | -0.0708
